Published values of several laboratories.
Every numbered part comes from another study and shows a few of its results, in no order. Positions count from the first letter of the parent shown.

Block 1
Target: Prothrombin, mature alpha-thrombin (F2, Homo sapiens, UniProt P00734)
Technique: aptamer microarray, sandwich
Molecule type: DNA with 2'F-ANA
Medium: in vitro
Concentration: 200 nM
Notes: whole 15-mer aptamer, many near background
With: Cy3 exosite-II aptamer, 400 nM
Reading: higher = stronger binding
Sequence: GGTTGGTGTGGTTGG
`2'F-ANA at 1 2 4 5 7 10 12 13 14`: “mean fluorescence intensity” 48.8 a.u.
For `2'F-ANA at 1 3 8 9 11`, “mean fluorescence intensity” read 333 a.u.
`2'F-ANA at 1 2 3 4 5 9 12 15` — result for “mean fluorescence intensity”: 111 a.u.
`2'F-ANA at 2 3 5 6 7 8 11 14 15` — result for “mean fluorescence intensity”: 52.1 a.u.
Under “mean fluorescence intensity”, `2'F-ANA at 1 2 3 5 6 8 9 13 14 15` is recorded as 52.3 a.u.
`2'F-ANA at 3 4 7 9 13 14 15` — result for “mean fluorescence intensity”: 265 a.u.
`2'F-ANA at 5 7 8 9 12 13 14`: “mean fluorescence intensity” 45.1 a.u.
For `2'F-ANA at 2 4 6 7 8 12 15`, “mean fluorescence intensity” read 586 a.u.
`2'F-ANA at 1 3 4 5 6 11 13 14 15`: “mean fluorescence intensity” 101 a.u.
`2'F-ANA at 2 5 6 7 8 13`: “mean fluorescence intensity” 63.7 a.u.
`2'F-ANA at 3 5 7 8 9 13 14 15`: “mean fluorescence intensity” 55.5 a.u.
Under “mean fluorescence intensity”, `2'F-ANA at 9 10 11 12 13 14` is recorded as 116 a.u.
Under “mean fluorescence intensity”, `2'F-ANA at 1 2 5 7 8 10` is recorded as 47.6 a.u.
For `2'F-ANA at 3 4 5 7 9 12 14 15`, “mean fluorescence intensity” read 53.3 a.u.
For `2'F-ANA at 1 2 3 11 12 13 14`, “mean fluorescence intensity” read 119 a.u.
`2'F-ANA at 1 4 5 7 9 12 14 15` — result for “mean fluorescence intensity”: 44.1 a.u.

Block 2
Target: CCNE2, cyclin fold, Cln2 fusion (human)
Technique: yeast growth competition, sequencing
Medium: yeast
Notes: weak parent motif
Relative to: not given
Reading: higher = stronger binding
Starting sequence: PKMYT1 docking peptide (human); SFEPRNLLSLFED; partner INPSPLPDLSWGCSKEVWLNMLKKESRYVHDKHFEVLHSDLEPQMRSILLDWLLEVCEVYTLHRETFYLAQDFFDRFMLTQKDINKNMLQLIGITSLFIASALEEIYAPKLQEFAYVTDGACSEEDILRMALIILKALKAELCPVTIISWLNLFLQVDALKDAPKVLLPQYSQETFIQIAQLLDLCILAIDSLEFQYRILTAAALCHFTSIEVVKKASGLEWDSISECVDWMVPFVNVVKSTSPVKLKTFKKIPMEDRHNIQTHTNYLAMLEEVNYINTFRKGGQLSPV
`IFEPRNLLSLFED [S1I]`: “normalised enrichment score” -0.301.
Under “normalised enrichment score”, `HFEPRNLLSLFED [S1H]` is recorded as 0.0738.
For `SFEPRNLLSLFCD [E12C]`, “normalised enrichment score” read 0.502.
`SFEPRNLLSLFGD [E12G]`: “normalised enrichment score” 0.0405.
Under “normalised enrichment score”, `SFEPRNLLSLFEN [D13N]` is recorded as 0.944.
`SKEPRNLLSLFED [F2K]` — result for “normalised enrichment score”: -0.187.
For `SFEARNLLSLFED [P4A]`, “normalised enrichment score” read 0.00675.
`SFEPRNLLSLDED [F11D]`: “normalised enrichment score” -0.307.
`FFEPRNLLSLFED [S1F]`: “normalised enrichment score” 0.431.
`SFEPRNKLSLFED [L7K]` — result for “normalised enrichment score”: 0.0649.
For `SFEPCNLLSLFED [R5C]`, “normalised enrichment score” read 0.235.
`SFEPRNWLSLFED [L7W]`: “normalised enrichment score” -0.368.
`SFEPRNLLSLFEP [D13P]` — result for “normalised enrichment score”: 0.76.
For `SFEPENLLSLFED [R5E]`, “normalised enrichment score” read 0.891.
`SFEPRNLLSLFAD [E12A]`: “normalised enrichment score” 0.329.
`SFEPRNALSLFED [L7A]`: “normalised enrichment score” 0.167.
For `SFEPRNLLSLHED [F11H]`, “normalised enrichment score” read -0.153.
`SFEPRNLTSLFED [L8T]`: “normalised enrichment score” 0.39.
Under “normalised enrichment score”, `SFEPRNLLHLFED [S9H]` is recorded as 0.276.
`SFEPRNLLSLFDD [E12D]` — result for “normalised enrichment score”: 0.0126.
For `SFEPRNILSLFED [L7I]`, “normalised enrichment score” read 0.151.
`SFEPRNLYSLFED [L8Y]` — result for “normalised enrichment score”: 0.35.
For `SFEPRNLLSMFED [L10M]`, “normalised enrichment score” read -0.249.
For `SFEPYNLLSLFED [R5Y]`, “normalised enrichment score” read 0.27.
Under “normalised enrichment score”, `SFMPRNLLSLFED [E3M]` is recorded as 0.758.

Block 3
Target: ABI1, truncated, D143A, DHFR fusion (Arabidopsis thaliana)
Technique: DHFR PCA, deep sequencing
Medium: yeast
Notes: methotrexate growth selection, single substitutions
With: (+)-ABA 0.11 µM
Relative to: wild-type fitted maximum
Reading: higher = stronger binding
Starting sequence: PYL1, truncated, DHFR fusion (Arabidopsis thaliana); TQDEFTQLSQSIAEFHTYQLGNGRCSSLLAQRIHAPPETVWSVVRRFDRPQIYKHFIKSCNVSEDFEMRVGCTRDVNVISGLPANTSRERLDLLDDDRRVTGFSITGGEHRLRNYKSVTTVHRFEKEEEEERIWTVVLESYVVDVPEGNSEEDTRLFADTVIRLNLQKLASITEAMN; partner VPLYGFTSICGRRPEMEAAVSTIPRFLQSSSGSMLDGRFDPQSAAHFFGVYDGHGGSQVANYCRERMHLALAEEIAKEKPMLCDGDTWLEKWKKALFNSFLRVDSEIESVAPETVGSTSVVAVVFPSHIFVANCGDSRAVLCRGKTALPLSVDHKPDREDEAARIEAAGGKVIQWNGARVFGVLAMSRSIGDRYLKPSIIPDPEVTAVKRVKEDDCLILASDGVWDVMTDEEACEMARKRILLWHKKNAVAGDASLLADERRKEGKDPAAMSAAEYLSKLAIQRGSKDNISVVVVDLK
`V100W` — result for “relative binding score”: -5.72%.
`R24V`: “relative binding score” 10.4%.
`S26N` — result for “relative binding score”: 3.78%.
Under “relative binding score”, `Q51N` is recorded as 0.731%.
`T106P`: “relative binding score” -5.51%.
`F66E`: “relative binding score” 8.55%.
`R163D` — result for “relative binding score”: 0.662%.
`N114V` — result for “relative binding score”: -6.09%.
`L29I` — result for “relative binding score”: 44.9%.
`V121T`: “relative binding score” -3.3%.
For `T39M`, “relative binding score” read 34.2%.
For `L29Q`, “relative binding score” read 1.53%.
For `T73G`, “relative binding score” read 1.33%.
For `R90Q`, “relative binding score” read 5.64%.
Under “relative binding score”, `R155S` is recorded as 0.525%.
Under “relative binding score”, `V145R` is recorded as -2.17%.
`D144S`: “relative binding score” 4.29%.
For `R45V`, “relative binding score” read -1.83%.
`R155G` — result for “relative binding score”: -9.26%.
Under “relative binding score”, `T119V` is recorded as -2.07%.
`R113I` — result for “relative binding score”: 23.1%.
`H55F`: “relative binding score” 15.7%.
`R90Y` — result for “relative binding score”: -8.83%.
Under “relative binding score”, `V40W` is recorded as 5.24%.

Block 4
Target: Centromere-binding protein 1, full length, His-tagged (CBF1, Saccharomyces cerevisiae, UniProt P17106, residues 1-351)
UniProt P17106, sequence (whole entry, looked up): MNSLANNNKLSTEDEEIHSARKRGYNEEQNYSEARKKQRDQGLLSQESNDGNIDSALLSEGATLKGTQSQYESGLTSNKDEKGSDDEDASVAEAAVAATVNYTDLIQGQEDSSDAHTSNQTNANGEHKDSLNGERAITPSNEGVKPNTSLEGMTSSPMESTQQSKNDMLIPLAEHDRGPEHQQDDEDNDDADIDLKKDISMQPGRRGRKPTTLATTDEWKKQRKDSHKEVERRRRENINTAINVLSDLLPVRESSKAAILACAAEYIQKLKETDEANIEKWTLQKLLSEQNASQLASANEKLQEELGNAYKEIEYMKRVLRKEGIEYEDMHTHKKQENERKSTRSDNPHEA
Technique: competition protein-binding microarray
Molecule type: double-stranded DNA, one strand shown
Medium: in vitro
Concentration: 2 µM
Notes: whole 60-bp probe, lowest competitor level
With: Pho4 competitor, 0.05 µM
Reading: higher = stronger binding
Shared flanks, not repeated: … GTCTTGATTCGCTTGACGCTGCTG
For `GAGTTGCTTGAGGGTCTCGTGATGGCATCTTGCTGT`, the fluorescence intensity was 407 a.u.
`TTAGGGCATTTTCGTCACACGGTAGTGCTCCAGATG` has a fluorescence intensity of 79.7 a.u.
For `CCAGACACATCCCATTGCATGACGCAAGTGTGGGAG`, the fluorescence intensity was 61 a.u.
The fluorescence intensity of `CGTCCTAGTGATTGTCACCGAACTTCCATGAGGAAG` is reported as 83.8 a.u.
`TTTCGATCTTCCCATCACGCATAGGGTTTTGAGCTT` gave a fluorescence intensity of 70 a.u.
`CTTTCCCGATCTTGTCACCTTACTTTAGCACATTTG` gave a fluorescence intensity of 81.5 a.u.
For `CGGGCCTCAGGCAGCCACGAGGTAGACGGGCTCAGG`, the fluorescence intensity was 71.1 a.u.
The fluorescence intensity of `AAAGCCAGGCCGAGTCACGTCAGTTGCTGACCCTGG` is reported as 81.2 a.u.
With `AAATTACTAAGTTGTTCAGTGGGTGACGCCGTATGA` the fluorescence intensity was 65 a.u.
The fluorescence intensity of `AACGAAATCCACCATCACGTTCCTAGCAACAAGAGG` is reported as 281 a.u.
The fluorescence intensity of `ACTTGATTTGCGGAGAACGTGATGGCGACGCACTCG` is reported as 284 a.u.
`TCGGACGATAACGCCGGCGTGATGGCCACAGAAACA` has a fluorescence intensity of 97.2 a.u.
`CAGGGCATAAAGAGGCACATGCGGCGTTTGTAGCCG` gave a fluorescence intensity of 81.7 a.u.
The fluorescence intensity of `CGGGGTTAAGTTTGTGTAGTGGGTGGCTTGCAGCAG` is reported as 64.6 a.u.
`AAATTACTAAGTTTTCACGTGTGGTACCCCGTATGA` has a fluorescence intensity of 604 a.u.
For `CATACCCAACCTTGGGAAGTGGGTGAAGATATTTGT`, the fluorescence intensity was 76.9 a.u.
`TTGTCTCATATTACCCACGTGGAAGGCGCCCAACAT` gave a fluorescence intensity of 655 a.u.
`TCGGTACGCGGCTCTAGCGTGCTTTTTGGAAGGGCA` gave a fluorescence intensity of 64.5 a.u.
With `CTTTCCCGATCTTGGTCGGTGGGTGTAGCACATTTG` the fluorescence intensity was 54.5 a.u.

Some of these lines once more (block 3):
`H55F`: “relative binding score” 15.7%.
`R113I` — result for “relative binding score”: 23.1%.
`V100W` — result for “relative binding score”: -5.72%.
For `R90Q`, “relative binding score” read 5.64%.
`R163D` — result for “relative binding score”: 0.662%.
`T106P`: “relative binding score” -5.51%.
`R155G` — result for “relative binding score”: -9.26%.
For `R45V`, “relative binding score” read -1.83%.
For `L29Q`, “relative binding score” read 1.53%.
`N114V` — result for “relative binding score”: -6.09%.
`V121T`: “relative binding score” -3.3%.
